Assay results gathered from unrelated publications.
Each line is one published result; not all experiments were run side by side. Numbers after ± are the reported error.
Organism: Staphylococcus epidermidis

SMILES	assay	system	conditions	measurement	result
CN1CC(=O)N=C1N.C[C@H](CCC(=O)O)[C@H]1CC[C@H]2[C@@H]3CC[C@@H]4C[C@H](O)CC[C@]4(C)[C@H]3C[C@H](O)[C@]12C		TISTR 2172	1 mg per disc, 18 to 24 h, 37 °C, 6 mm disc	inhibition zone diameter	13.3 ± 0.2 mm
ONCc1cc(C(F)(F)F)cc(C(F)(F)F)c1		ATCC 1798	8 h	MIC50	< 60 µg/mL
CC(C)[C@H](NC(=O)[C@H](CO)NC(=O)[C@@H](N)CC(=O)O)C(=O)N[C@H]1CSC(=O)[C@H](Cc2ccccc2)NC(=O)[C@H](Cc2ccc(O)cc2)NC(=O)[C@H](CO)NC(=O)[C@H](C)NC1=O	biofilm formation	RP62A	24 h	IC50	99 nM
CN1CC(=O)N=C1N.C[C@H](CCC(=O)O)[C@H]1CC[C@H]2[C@@H]3[C@H](O)C[C@@H]4C[C@H](O)CC[C@]4(C)[C@H]3CC[C@]12C		TISTR 2172	1 mg per disc, 18 to 24 h, 37 °C, 6 mm disc	inhibition zone diameter	12 ± 0.6 mm
CC[C@H](C)[C@H](NC(=O)[C@H](CCCCN)NC(=O)[C@H](CCCCN)NC(=O)[C@H](CC(C)C)NC(=O)[C@H](CCCCN)NC(=O)[C@H](CCC(=O)O)NC(=O)[C@H](CCCCN)NC(=O)[C@@H](NC(=O)[C@H](CCCCN)NC(=O)[C@H](CC(N)=O)NC(=O)[C@H](CCCNC(=N)N)NC(=O)[C@H](Cc1ccccc1)NC(=O)[C@H](CCCCN)NC(=O)[C@H](CCCNC(=N)N)NC(=O)[C@H](CC(C)C)NC(=O)[C@H](CCCNC(=N)N)NC(=O)[C@H](CCCCN)NC(=O)[C@H](CCCNC(=N)N)NC(=O)[C@H](CC(C)C)NC(=O)[C@@H](N)CCCNC(=N)N)[C@@H](C)CC)C(=O)NCC(=O)N[C@@H](CCC(N)=O)C(=O)N[C@@H](CCCCN)C(=O)N[C@H](C(=O)N[C@@H](CCC(N)=O)C(=O)NCC(=O)N[C@@H](Cc1ccccc1)C(=O)N[C@H](C(=O)N1CCC[C@H]1C(=O)N[C@@H](CCCCN)C(=O)N[C@@H](CC(C)C)C(=O)N[C@@H](CCC(N)=O)C(=O)N1CCC[C@H]1C(=O)N[C@@H](CO)C(=O)N[C@@H](CCCCN)C(=O)N[C@@H](CCC(N)=O)C(=O)N[C@@H](CO)C(=O)O)C(C)C)[C@@H](C)CC	inhibition zone	penicillin-resistant P1389		lethal concentration	1.87 µM
ONCc1ccc(F)cc1		ATCC 1798	8 h	MIC50	< 60 µg/mL
[Ag+].[S-]c1ccccn1.c1ccc(P(c2ccccc2)c2ccccc2)cc1.c1ccc(P(c2ccccc2)c2ccccc2)cc1		MTCC 435, DMSO	0.1 mL of 50 mg/mL in 8 mm well, 18 to 24 h	inhibition zone diameter	14 mm
CC[C@H](C)[C@H](NC(=O)[C@H](CCCCN)NC(=O)[C@H](CCCCN)NC(=O)[C@H](CC(C)C)NC(=O)[C@H](CCCCN)NC(=O)[C@H](CCC(=O)O)NC(=O)[C@H](CCCCN)NC(=O)[C@@H](NC(=O)[C@H](CCCCN)NC(=O)[C@H](CC(N)=O)NC(=O)[C@H](CCCNC(=N)N)NC(=O)[C@H](Cc1ccccc1)NC(=O)[C@H](CCCCN)NC(=O)[C@H](CCCNC(=N)N)NC(=O)[C@H](CC(C)C)NC(=O)[C@H](CCCNC(=N)N)NC(=O)[C@H](CCCCN)NC(=O)[C@H](CCCNC(=N)N)NC(=O)[C@H](CC(C)C)NC(=O)[C@@H](N)CC(C)C)[C@@H](C)CC)C(=O)NCC(=O)N[C@@H](CCC(N)=O)C(=O)N[C@@H](CCCCN)C(=O)N[C@H](C(=O)N[C@@H](CCC(N)=O)C(=O)NCC(=O)N[C@@H](Cc1ccccc1)C(=O)N[C@H](C(=O)N1CCC[C@H]1C(=O)N[C@@H](CCCCN)C(=O)N[C@@H](CC(C)C)C(=O)N[C@H](C(=O)N1CCC[C@H]1C(=O)N[C@@H](CCCNC(=N)N)C(=O)N[C@H](C(=O)N[C@@H](CCC(=O)O)C(=O)N[C@@H](CO)C(=O)O)[C@@H](C)O)C(C)C)C(C)C)[C@@H](C)CC	inhibition zone	penicillin-resistant P1389		lethal concentration	1.3 µM

Repeated from above:
SMILES	assay	system	conditions	measurement	result
CN1CC(=O)N=C1N.C[C@H](CCC(=O)O)[C@H]1CC[C@H]2[C@@H]3[C@H](O)C[C@@H]4C[C@H](O)CC[C@]4(C)[C@H]3CC[C@]12C		TISTR 2172	1 mg per disc, 18 to 24 h, 37 °C, 6 mm disc	inhibition zone diameter	12 ± 0.6 mm
